Measured values from different studies.
Each numbered part is a random draw from the data of one study; scales do not carry over between parts.

Set 1
Target: Protein max, full length (MAX, Homo sapiens, UniProt P61244-2, residues 1-151)
Technique: protein-binding microarray
Form: double-stranded DNA, one strand shown
Matrix: in vitro
Tested at: not given
Notes: k-mer, scored over probes, only values ≥0.25
Direction: higher = stronger binding
Sequence	E-score
ACGTTCCA	0.267
ACGCATGC	0.439
CGCGTGAC	0.462
AGCACGTC	0.287
CCATGCAC	0.34
CGTGCATC	0.374
TGGTCACA	0.292
CGTGATCC	0.344
CAACATGG	0.302
AAACATGT	0.351

Set 2
Target: Fragile X messenger ribonucleoprotein 1, C-terminal low-complexity region (Fmr1, Mus musculus, UniProt P35922)
Technique: RNA Bind-n-Seq
Form: RNA
Matrix: in vitro
Tested at: 200 nM
Notes: whole 134-nt RNA, ends assumed
With: 150 mM LiCl
Relative to: input library
Direction: higher = stronger binding
Each molecule: 7-deaza-guanosine replaces G
Sequence	log2 enrichment
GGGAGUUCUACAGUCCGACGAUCGAGGAGCUGCUGCUGGAGCCCGAGCCGGAGCCCGAGCCCGAAGAGGAGCCGCCCCGGCCCCGCGCCCCCCCGGGAGCUCCGGGCCCUGGGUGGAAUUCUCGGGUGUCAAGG	-1.25
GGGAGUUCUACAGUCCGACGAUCUAUCAGGAGGGCAGACUUCAAAAGCUACUAAAAAUGAACGGCCCUGAAGAUCUUCCCAAGUCCUAUGACUAUGACCUUAUCAUCAUUGGAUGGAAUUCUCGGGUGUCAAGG	-2.04
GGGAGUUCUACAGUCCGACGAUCUCCUGUGCUACACAUCGUAUGUACCGAAUCGGGCCCCCGGGCCCCCGGGGCCCCCGGGGAAAGUAUUAUGUUACGCCGUUCGGAUCUGCAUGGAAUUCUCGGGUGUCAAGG	-2.68
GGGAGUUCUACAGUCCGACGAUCUAACUUUAGAGGAGGAUCUGAUGGAUAUGGCAGUGGACGUGGAUUUGGGGAUGGCUAUAAUGGGUAUGGAGGAGGACCUGGCGGUGGCAAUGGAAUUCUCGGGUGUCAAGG	0.348
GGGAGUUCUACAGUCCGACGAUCAGUCCUGUGCUACACAUCGUAUGUACCGAAUCGGGGCCCCGGGGCCCCGGGCCCCGGAAAGUAUUAUGUUACGCCGUUCGGAUCUGCACUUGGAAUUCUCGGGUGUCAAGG	0.455
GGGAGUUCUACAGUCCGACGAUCCUGUGCUACACAUCGUAUGUACCGAAUCGGCCCCCCCGGCCCCCCCGGGGCCCCCCCGGGGAAAGUAUUAUGUUACGCCGUUCGGAUCUGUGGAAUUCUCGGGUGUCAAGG	0.284
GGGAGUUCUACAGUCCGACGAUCUGGCCCUGGUGGCAUGCGGGGAGGAAGAGGUGGCUUCAUGGAUCGUGGUGGUCCCGGUGGAAUGUUCAGAGGUGGCCGUGGUGGAGACAGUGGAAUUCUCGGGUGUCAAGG	0.167
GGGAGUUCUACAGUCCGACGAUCUAACUUUAGAGGACGAUCUGAUGGAUAUGGCAGUGGACGUGGAUUUGGGGAUGGCUAUAAUGGGUAUGGAGGAGGACCUGGAGGUGGCAAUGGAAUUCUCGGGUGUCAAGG	0.424
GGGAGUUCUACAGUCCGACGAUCUCCUGUGCUACACAUCGUAUGUACCGAAUCGGGGAAAAAGGGGUGGGGUUUUUUUGGGGAAAGUAUUAUGUUACGCCGUUCGGAUCUGCAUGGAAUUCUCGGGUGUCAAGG	-1.75

Set 3
Target: Histone acetyltransferase KAT6A, winged helix 1, GST fusion (KAT6A, Homo sapiens, UniProt Q92794, residues 1-85)
Technique: protein binding microarray
Form: double-stranded DNA, one strand shown
Matrix: in vitro
Tested at: not given
Notes: 8-mer, flanks averaged, mean of 2 arrays, mostly near background
Relative to: not given
Direction: higher = stronger binding
Residues (chain): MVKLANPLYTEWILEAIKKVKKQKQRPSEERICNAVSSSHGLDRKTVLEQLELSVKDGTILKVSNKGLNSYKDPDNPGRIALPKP
Sequence	E-score
AAATGGCC	0.117
TAATACTA	-0.138
AAAAATTT	-0.119
CGCGGATA	0.331
GGCCCTGA	-0.0531
CCAGACCG	0.134
TATAAGCA	-0.141
AGCCGCCC	0.347
ACGACCCA	-0.32
AAGATCGT	-0.0527
TAACTAGA	0.0901
GGACACAC	0.11

Other studies, line by line
Molecule	target	assay	system	setting	scale	measurement	value
PhoQ, residues 284 288 289 292 302 303 STVVAA	PhoP, residues 12 14 15 18 19 GHCSL (Escherichia coli, UniProt P23836)	Sort-seq, item: YFP reporter	E. coli	PhoQ-PhoP variant library, with: 10 µM Mg2+	relative to: high Mg2+ state, higher = stronger signaling	fold induction	24.4

Some of these lines once more (set 2):
Sequence	log2 enrichment
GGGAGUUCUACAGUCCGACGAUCUGGCCCUGGUGGCAUGCGGGGAGGAAGAGGUGGCUUCAUGGAUCGUGGUGGUCCCGGUGGAAUGUUCAGAGGUGGCCGUGGUGGAGACAGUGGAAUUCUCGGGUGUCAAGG	0.167
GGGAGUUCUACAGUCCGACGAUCCUGUGCUACACAUCGUAUGUACCGAAUCGGCCCCCCCGGCCCCCCCGGGGCCCCCCCGGGGAAAGUAUUAUGUUACGCCGUUCGGAUCUGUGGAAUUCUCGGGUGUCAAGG	0.284
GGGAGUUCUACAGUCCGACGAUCUAACUUUAGAGGAGGAUCUGAUGGAUAUGGCAGUGGACGUGGAUUUGGGGAUGGCUAUAAUGGGUAUGGAGGAGGACCUGGCGGUGGCAAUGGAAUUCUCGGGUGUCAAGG	0.348
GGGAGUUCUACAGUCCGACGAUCUCCUGUGCUACACAUCGUAUGUACCGAAUCGGGGAAAAAGGGGUGGGGUUUUUUUGGGGAAAGUAUUAUGUUACGCCGUUCGGAUCUGCAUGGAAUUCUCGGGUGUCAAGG	-1.75
